{"data": "Measurements of several laboratories", "note": "Every numbered part comes from another study and shows a few of its results, in no order. Substitutions count along the parent as printed."}
{"data": "Series 1", "target": "CCNB3, cyclin fold, Cln2 fusion (human)", "technique": "yeast growth competition, sequencing", "matrix": "yeast", "setting": "weak parent motif", "reference": "not given", "reading": "higher = stronger binding", "starting sequence": "CDKN1B docking peptide (human); PSACRNLFGPVDH; partner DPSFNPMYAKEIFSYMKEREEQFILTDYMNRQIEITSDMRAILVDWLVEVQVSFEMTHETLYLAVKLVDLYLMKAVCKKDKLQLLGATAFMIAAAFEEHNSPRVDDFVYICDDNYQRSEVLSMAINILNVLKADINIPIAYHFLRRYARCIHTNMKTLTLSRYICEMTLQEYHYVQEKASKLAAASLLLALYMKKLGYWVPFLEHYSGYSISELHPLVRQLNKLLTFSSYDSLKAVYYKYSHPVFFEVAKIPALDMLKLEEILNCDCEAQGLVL"}
{"Change": "N6W", "normalised enrichment score": 0.292}
{"Change": "C4L", "normalised enrichment score": 0.358}
{"Change": "R5P", "normalised enrichment score": 0.134}
{"Change": "P1G", "normalised enrichment score": 0.311}
{"Change": "N6P", "normalised enrichment score": -0.291}
{"Change": "V11T", "normalised enrichment score": 0.17}
{"Change": "L7Q", "normalised enrichment score": 0.131}
{"data": "Series 2", "target": "Prothrombin, mature alpha-thrombin (F2, Homo sapiens, UniProt P00734)", "technique": "aptamer microarray, sandwich", "form": "DNA with 2'F-ANA", "matrix": "in vitro", "tested at": "200 nM", "setting": "whole 15-mer aptamer, many near background", "together with": "Cy3 exosite-II aptamer, 400 nM", "reading": "higher = stronger binding", "sequence": "GGTTGGTGTGGTTGG"}
{"Modification": "2'F-ANA at 1 3 4 9 10 15", "mean fluorescence intensity [a.u.]": 65.2}
{"Modification": "2'F-ANA at 3 7 15", "mean fluorescence intensity [a.u.]": 1150}
{"Modification": "2'F-ANA at 2 4 5 9 13 15", "mean fluorescence intensity [a.u.]": 49.4}
{"Modification": "2'F-ANA at 1 5 7 8 13 14", "mean fluorescence intensity [a.u.]": 44.3}
{"Modification": "2'F-ANA at 2 4 5 6 11 13 14", "mean fluorescence intensity [a.u.]": 45.9}
{"Modification": "2'F-ANA at 1 7 9 10", "mean fluorescence intensity [a.u.]": 53.4}
{"Modification": "2'F-ANA at 1 2 5 6 7 8 13 14 15", "mean fluorescence intensity [a.u.]": 52.2}
{"Modification": "2'F-ANA at 2 5 7 10 11 13 14", "mean fluorescence intensity [a.u.]": 46.3}
{"Modification": "2'F-ANA at 1 2 4 5 7 13", "mean fluorescence intensity [a.u.]": 50.7}
{"Modification": "2'F-ANA at 1 4 8 10 13", "mean fluorescence intensity [a.u.]": 50.1}
{"Modification": "2'F-ANA at 3 4 6 8 9 10 11 12 13 14", "mean fluorescence intensity [a.u.]": 142}
{"Modification": "2'F-ANA at 5 8 9 11 15", "mean fluorescence intensity [a.u.]": 65.1}
{"Modification": "2'F-ANA at 1 2 3 5 6 7 11 13 14 15", "mean fluorescence intensity [a.u.]": 48.9}
{"data": "Series 3", "target": "Histone acetyltransferase KAT6A, winged helix 2, GST fusion (KAT6A, Homo sapiens, UniProt Q92794, residues 85-181)", "technique": "protein binding microarray", "form": "double-stranded DNA, one strand shown", "matrix": "in vitro", "tested at": "not given", "setting": "8-mer, flanks averaged, mean of 2 arrays, mostly near background", "reference": "not given", "reading": "higher = stronger binding", "Target sequence (chain)": "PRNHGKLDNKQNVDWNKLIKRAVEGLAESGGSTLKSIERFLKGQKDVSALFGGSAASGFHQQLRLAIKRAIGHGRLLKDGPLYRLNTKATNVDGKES"}
{"Sequence": "GACTTCAC", "E-score": -0.0593}
{"Sequence": "ACAGGATA", "E-score": -0.08}
{"Sequence": "GCCCCGTA", "E-score": -0.171}
{"Sequence": "CCCATCCG", "E-score": -0.0153}
{"Sequence": "CAATTTGC", "E-score": -0.0948}
{"Sequence": "AGGGGTTA", "E-score": -0.275}
{"Sequence": "ACTAAGCA", "E-score": 0.0663}
{"Sequence": "GGGCCACA", "E-score": 0.0601}
{"Sequence": "GCTTAACC", "E-score": -0.0226}
{"Sequence": "CGGACGTC", "E-score": 0.105}
{"Sequence": "ACGCCAAG", "E-score": -0.123}
{"Sequence": "GTCAATGA", "E-score": -0.121}
{"Sequence": "ACATTCGA", "E-score": -0.0671}
{"Sequence": "GGAATCCA", "E-score": 0.00134}
{"data": "Single results of other studies"}
{"Molecule": "PhoQ, residues 284 288 289 292 302 303 ALAMYF", "target": "PhoP, residues 12 14 15 18 19 NHFIF (Escherichia coli, UniProt P23836)", "test": "Sort-seq, measured: YFP reporter", "test system": "E. coli", "conditions": "PhoQ-PhoP variant library, together with: 10 µM Mg2+", "scale": "reference: high Mg2+ state, higher = stronger signaling", "endpoint": "fold induction", "value": 2.24}
{"note": "Excerpt of the above (series 2):"}
{"Modification": "2'F-ANA at 1 2 5 6 7 8 13 14 15", "mean fluorescence intensity [a.u.]": 52.2}
{"Modification": "2'F-ANA at 1 7 9 10", "mean fluorescence intensity [a.u.]": 53.4}
{"Modification": "2'F-ANA at 1 5 7 8 13 14", "mean fluorescence intensity [a.u.]": 44.3}
